Measured values collected from several papers.
A part holds a random share of what one study measured.
Sequence of UniProt P42681 (whole entry, looked up): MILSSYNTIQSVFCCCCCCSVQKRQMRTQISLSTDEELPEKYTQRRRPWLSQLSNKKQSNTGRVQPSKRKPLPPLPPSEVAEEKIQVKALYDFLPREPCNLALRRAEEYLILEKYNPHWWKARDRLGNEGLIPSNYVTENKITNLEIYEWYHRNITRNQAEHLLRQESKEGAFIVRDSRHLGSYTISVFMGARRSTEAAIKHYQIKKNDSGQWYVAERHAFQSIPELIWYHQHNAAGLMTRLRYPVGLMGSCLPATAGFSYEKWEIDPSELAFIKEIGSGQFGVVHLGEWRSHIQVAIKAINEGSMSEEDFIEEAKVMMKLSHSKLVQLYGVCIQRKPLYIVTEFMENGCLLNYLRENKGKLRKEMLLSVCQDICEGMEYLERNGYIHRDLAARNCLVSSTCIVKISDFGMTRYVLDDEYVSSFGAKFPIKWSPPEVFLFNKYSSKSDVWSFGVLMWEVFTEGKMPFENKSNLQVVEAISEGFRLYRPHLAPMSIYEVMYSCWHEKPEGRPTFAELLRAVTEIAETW
Sequence of UniProt Q86UE8 (whole entry, looked up): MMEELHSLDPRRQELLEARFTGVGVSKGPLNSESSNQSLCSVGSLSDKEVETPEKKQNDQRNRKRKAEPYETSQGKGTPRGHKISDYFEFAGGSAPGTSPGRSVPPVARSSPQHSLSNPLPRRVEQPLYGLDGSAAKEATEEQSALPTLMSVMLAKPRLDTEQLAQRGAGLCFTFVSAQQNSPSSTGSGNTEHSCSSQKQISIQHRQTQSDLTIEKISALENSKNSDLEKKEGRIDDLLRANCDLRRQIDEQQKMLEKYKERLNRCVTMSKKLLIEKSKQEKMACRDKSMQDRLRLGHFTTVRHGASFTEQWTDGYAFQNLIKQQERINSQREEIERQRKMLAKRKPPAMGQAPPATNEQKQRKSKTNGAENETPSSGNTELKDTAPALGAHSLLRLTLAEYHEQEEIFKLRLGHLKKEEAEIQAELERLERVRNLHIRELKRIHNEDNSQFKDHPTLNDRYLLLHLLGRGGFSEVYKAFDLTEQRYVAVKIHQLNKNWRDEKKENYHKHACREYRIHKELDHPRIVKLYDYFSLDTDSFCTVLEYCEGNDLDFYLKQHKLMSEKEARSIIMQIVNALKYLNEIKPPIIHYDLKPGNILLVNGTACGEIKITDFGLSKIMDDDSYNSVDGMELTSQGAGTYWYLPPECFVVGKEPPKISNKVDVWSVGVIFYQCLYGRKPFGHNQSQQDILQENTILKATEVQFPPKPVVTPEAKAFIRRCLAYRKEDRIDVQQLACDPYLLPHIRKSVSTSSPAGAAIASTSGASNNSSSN
Sequence of UniProt Q02750 (whole entry, looked up): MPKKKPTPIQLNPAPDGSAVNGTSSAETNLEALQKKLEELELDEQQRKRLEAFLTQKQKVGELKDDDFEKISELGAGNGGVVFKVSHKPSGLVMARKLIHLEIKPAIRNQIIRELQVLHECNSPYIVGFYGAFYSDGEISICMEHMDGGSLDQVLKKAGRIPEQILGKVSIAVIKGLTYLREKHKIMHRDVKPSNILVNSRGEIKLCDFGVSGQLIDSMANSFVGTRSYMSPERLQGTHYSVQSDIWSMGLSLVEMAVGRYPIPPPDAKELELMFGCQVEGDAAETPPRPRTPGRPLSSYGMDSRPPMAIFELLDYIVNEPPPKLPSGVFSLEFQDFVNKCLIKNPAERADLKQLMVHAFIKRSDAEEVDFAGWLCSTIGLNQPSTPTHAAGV
Sequence of UniProt Q8N568 (whole entry, looked up): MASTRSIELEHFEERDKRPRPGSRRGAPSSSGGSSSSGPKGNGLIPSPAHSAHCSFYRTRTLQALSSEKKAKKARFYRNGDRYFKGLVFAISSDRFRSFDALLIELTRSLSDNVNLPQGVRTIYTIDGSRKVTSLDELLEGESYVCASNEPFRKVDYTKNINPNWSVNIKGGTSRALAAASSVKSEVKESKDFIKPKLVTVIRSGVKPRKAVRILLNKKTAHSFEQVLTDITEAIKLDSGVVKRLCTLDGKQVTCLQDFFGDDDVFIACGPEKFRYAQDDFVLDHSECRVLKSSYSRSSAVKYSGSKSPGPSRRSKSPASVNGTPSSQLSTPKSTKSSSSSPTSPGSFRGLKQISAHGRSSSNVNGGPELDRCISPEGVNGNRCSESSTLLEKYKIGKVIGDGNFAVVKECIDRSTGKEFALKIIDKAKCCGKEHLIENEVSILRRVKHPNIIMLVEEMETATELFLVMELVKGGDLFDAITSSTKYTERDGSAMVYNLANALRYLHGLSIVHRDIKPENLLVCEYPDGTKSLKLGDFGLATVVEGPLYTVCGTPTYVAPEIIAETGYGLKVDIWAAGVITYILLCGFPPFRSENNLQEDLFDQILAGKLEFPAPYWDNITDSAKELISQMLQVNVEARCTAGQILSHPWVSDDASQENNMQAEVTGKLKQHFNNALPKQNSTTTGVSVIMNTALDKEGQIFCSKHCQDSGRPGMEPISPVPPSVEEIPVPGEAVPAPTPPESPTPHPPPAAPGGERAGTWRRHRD
Sequence of UniProt Q7KZI7 (whole entry, looked up): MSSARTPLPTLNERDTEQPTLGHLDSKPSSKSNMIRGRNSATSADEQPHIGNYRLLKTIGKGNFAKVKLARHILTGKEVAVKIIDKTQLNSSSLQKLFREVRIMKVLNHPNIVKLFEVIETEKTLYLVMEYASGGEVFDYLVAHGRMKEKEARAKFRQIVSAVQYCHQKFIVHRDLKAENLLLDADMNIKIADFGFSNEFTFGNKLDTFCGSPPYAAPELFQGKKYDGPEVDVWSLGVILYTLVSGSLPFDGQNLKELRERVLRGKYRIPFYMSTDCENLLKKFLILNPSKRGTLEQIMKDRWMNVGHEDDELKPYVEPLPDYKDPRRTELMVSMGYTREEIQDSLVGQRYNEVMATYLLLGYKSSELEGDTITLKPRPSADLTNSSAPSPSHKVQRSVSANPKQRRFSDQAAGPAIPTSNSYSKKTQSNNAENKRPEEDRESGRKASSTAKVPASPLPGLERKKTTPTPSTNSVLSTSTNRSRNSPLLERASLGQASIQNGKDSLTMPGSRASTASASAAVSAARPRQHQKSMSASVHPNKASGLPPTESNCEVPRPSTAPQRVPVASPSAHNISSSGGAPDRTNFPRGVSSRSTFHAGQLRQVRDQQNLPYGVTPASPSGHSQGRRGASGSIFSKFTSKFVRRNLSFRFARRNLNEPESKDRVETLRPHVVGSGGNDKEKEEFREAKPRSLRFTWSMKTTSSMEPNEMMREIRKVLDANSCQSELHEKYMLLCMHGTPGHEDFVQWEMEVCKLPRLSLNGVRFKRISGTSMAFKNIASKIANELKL
Sequence of UniProt P06493 (whole entry, looked up): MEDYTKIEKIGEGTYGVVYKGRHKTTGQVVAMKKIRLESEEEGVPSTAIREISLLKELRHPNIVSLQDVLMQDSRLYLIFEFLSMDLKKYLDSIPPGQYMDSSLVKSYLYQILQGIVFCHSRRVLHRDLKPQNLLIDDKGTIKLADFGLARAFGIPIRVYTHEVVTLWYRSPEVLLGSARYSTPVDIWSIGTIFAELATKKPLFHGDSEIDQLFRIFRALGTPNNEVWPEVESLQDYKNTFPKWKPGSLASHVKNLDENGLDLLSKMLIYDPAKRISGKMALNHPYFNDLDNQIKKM
Sequence of UniProt P32298 (whole entry, looked up): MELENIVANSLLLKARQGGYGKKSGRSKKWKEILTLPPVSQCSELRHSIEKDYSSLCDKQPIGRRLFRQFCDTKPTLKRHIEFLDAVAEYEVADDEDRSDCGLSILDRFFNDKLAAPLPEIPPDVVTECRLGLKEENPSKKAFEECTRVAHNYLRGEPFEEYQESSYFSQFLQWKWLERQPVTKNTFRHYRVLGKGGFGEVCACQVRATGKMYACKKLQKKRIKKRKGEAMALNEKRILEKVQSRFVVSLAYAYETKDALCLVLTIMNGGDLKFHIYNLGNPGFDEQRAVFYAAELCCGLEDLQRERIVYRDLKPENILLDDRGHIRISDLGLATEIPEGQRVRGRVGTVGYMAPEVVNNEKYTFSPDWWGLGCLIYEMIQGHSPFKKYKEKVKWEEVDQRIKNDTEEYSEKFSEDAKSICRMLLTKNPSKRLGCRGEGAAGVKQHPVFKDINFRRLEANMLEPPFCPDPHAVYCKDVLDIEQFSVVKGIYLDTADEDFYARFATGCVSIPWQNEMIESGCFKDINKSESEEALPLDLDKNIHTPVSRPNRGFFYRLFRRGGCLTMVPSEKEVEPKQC

Sample 1 — observed: enzyme activity; action: inhibitor; tested at: 10 µM
Target: Calcium/calmodulin-dependent protein kinase type II subunit alpha (CAMK2A, Homo sapiens, UniProt Q9UQM7)
Sequence of UniProt Q9UQM7 (whole entry, looked up): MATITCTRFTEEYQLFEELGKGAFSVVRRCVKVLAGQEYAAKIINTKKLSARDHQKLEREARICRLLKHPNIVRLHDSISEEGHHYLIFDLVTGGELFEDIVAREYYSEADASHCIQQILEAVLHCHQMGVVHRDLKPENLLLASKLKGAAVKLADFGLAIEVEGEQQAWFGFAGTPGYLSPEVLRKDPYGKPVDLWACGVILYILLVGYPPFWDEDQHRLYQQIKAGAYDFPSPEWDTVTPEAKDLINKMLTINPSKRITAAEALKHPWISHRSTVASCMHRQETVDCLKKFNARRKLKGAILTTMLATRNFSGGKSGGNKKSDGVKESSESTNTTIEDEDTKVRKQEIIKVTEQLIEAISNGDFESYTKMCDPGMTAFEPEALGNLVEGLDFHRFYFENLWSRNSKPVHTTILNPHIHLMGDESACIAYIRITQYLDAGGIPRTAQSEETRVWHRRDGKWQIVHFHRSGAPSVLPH
SMILES	inhibition [%]
COc1cc(C(=O)O)ccc1O	-90
NC(N)=N/N=C/c1c(Cl)cccc1Cl	-9
C[C@H](CC[C@@H](O[C@@H]1O[C@H](CO[C@@H]2O[C@H](CO)[C@@H](O)[C@H](O)[C@H]2O)[C@@H](O)[C@H](O)[C@H]1O)C(C)(C)O)[C@H]1CC[C@@]2(C)[C@@H]3CC=C4[C@@H](CC[C@H](O)C4(C)C)[C@]3(C)[C@H](O)C[C@]12C	6
CCCCCCc1ccc(O)cc1O	-10
CC(=O)S[C@@H]1CC2=CC(=O)CC[C@]2(C)[C@H]2CC[C@@]3(C)[C@@H](CC[C@@]34CCC(=O)O4)[C@H]12	-6
[C-]#[N+]C(=C\c1ccc(OC)cc1)/C(=C/c1ccc(OC)cc1)[N+]#[C-]	24

Sample 2 — cell line: mouse MPNST tumor cells; method: high-content nuclear imaging; item: cell number; tested at: 10 µM; time: 12 h; notes: mean of 2 replicates; baseline: plate mean; direction: higher = more cells
SMILES	nuclei count
Cc1cc(C)c(C2=NOC3C4CCC(C4)C23)c(C)c1 (stereo not shown)	0.488 z-score
O=C(NCc1ccc(C(F)(F)F)cc1)Nc1cccc2cnccc12	1.6 z-score
C[C@]1(C(=O)N(CCCC(=O)O)Cc2cccc(Cl)c2)CCN1C(=O)c1csc2ccccc12	0.373 z-score
CO[C@@]1(NC(=O)CSCC#N)C(=O)N2C(C(=O)O)=C(CSc3nnnn3C)CS[C@@H]21	-0.807 z-score
Clc1ccc(CSC(Cn2ccnc2)c2ccc(Cl)cc2Cl)cc1 (stereo not shown)	1.53 z-score
COc1cc(C)c(/C=C/C(C)=C/C=C/C(C)=C/C(=O)O)c(C)c1C	0.103 z-score

Sample 3 — cell line: HaCaT; tested at: 100 µM; time: 18 h
Compound	viability [%]
CCOc1nc2cccc(C(=O)OC(C)OC(=O)OC3CCCCC3)c2n1Cc1ccc(-c2ccccc2-c2nnn[nH]2)cc1 (stereo not shown)	19.7
CC(=O)OCC(=O)[C@@]12OC3(CCCC3)O[C@@H]1C[C@H]1[C@@H]3CCC4=CC(=O)C=C[C@]4(C)[C@@]3(F)[C@@H](O)C[C@@]12C	42.5
Cc1nc(Nc2ncc(C(=O)Nc3c(C)cccc3Cl)s2)cc(N2CCN(CCO)CC2)n1	21.2
Cc1ccc(NC(=O)c2ccc(CN3CCN(C)CC3)cc2)cc1Nc1nc(-c2cccnc2)cs1	17.7
c1ccc(-c2ccc(C(c3ccccc3)n3ccnc3)cc2)cc1 (stereo not shown)	26.1

Sample 4 — Compound: CCC(=O)Nc1ccc2ncnc(Nc3cccc(Br)c3)c2c1; observed: enzyme activity; action: inhibitor; tested at: 0.5 µM; baseline: control
target	remaining activity [%]
NEK3 (Homo sapiens, UniProt P51956)	99.6
GRK4 (Homo sapiens, UniProt P32298)	96.2
MAP2K1 (Homo sapiens, UniProt Q02750)	105
TXK (Homo sapiens, UniProt P42681)	90.5
DCLK2 (Homo sapiens, UniProt Q8N568)	89
Cyclin-dependent kinase 9, with cyclin K (CDK9, Homo sapiens, UniProt P50750)	94.1
RPS6KA4 (Homo sapiens, UniProt O75676)	106
PRKG2 (Homo sapiens, UniProt Q13237)	110
MAPK11 (Homo sapiens, UniProt Q15759)	92.9
TLK2 (Homo sapiens, UniProt Q86UE8)	104
ROCK1 (Homo sapiens, UniProt Q13464)	99.5
PLK3 (Homo sapiens, UniProt Q9H4B4)	93.2
CLK4 (Homo sapiens, UniProt Q9HAZ1)	99.4
MARK2 (Homo sapiens, UniProt Q7KZI7)	73.5
Cyclin-dependent kinase 1, with cyclin A (CDK1, Homo sapiens, UniProt P06493)	87.9

Mixed results — observed: ligand displacement; tested at: 10 µM
Target: 5-hydroxytryptamine receptor 5A (HTR5A, Homo sapiens, UniProt P47898)
Sequence of UniProt P47898 (whole entry, looked up): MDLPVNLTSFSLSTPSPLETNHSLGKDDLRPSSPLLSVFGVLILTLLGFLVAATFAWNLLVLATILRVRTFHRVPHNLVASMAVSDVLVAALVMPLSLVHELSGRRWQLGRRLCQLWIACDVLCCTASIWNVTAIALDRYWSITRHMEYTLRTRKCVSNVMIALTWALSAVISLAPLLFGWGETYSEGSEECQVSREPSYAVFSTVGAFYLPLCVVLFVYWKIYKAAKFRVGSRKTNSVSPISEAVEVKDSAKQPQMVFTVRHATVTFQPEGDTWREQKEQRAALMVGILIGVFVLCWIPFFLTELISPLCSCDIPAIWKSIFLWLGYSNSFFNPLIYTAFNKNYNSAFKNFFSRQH
SMILES	inhibition [%]
CN1CCN(c2cnc3c(C4CCN(C(=O)c5ccc(OC(F)(F)F)cc5N)CC4)ncnc3c2)CC1	-1.47
COc1cccc(CNC(=O)c2nc3scc(COCc4ccc(C(=O)O)cc4)c3c(=O)[nH]2)c1	-11.9

Repeated from above (sample 2):
SMILES	nuclei count
Clc1ccc(CSC(Cn2ccnc2)c2ccc(Cl)cc2Cl)cc1 (stereo not shown)	1.53 z-score
COc1cc(C)c(/C=C/C(C)=C/C=C/C(C)=C/C(=O)O)c(C)c1C	0.103 z-score
Cc1cc(C)c(C2=NOC3C4CCC(C4)C23)c(C)c1 (stereo not shown)	0.488 z-score
C[C@]1(C(=O)N(CCCC(=O)O)Cc2cccc(Cl)c2)CCN1C(=O)c1csc2ccccc12	0.373 z-score
O=C(NCc1ccc(C(F)(F)F)cc1)Nc1cccc2cnccc12	1.6 z-score
CO[C@@]1(NC(=O)CSCC#N)C(=O)N2C(C(=O)O)=C(CSc3nnnn3C)CS[C@@H]21	-0.807 z-score
